Measurements of several laboratories.
A part holds a random share of what one study measured. Changes are numbered by the printed parent chain.

Set 1
Target: CCND3, cyclin fold, Cln2 fusion (human)
Technique: yeast growth competition, sequencing
Medium: yeast
Setting: weak parent motif
Reference: not given
Reading: higher = stronger binding
Starting sequence: CDC6 docking peptide (human); TLKGRRLVFDNQL
`L7E`: “normalised enrichment score” 0.119.
`T1A` — result for “normalised enrichment score”: 0.0878.
`L7W` — result for “normalised enrichment score”: 0.179.
For `T1Q`, “normalised enrichment score” read 0.0393.
For `L7V`, “normalised enrichment score” read 0.0518.
`T1N` — result for “normalised enrichment score”: 0.136.
`L7K` — result for “normalised enrichment score”: 0.199.
For `L2A`, “normalised enrichment score” read 0.0621.

Set 2
Target: Sal-like protein 4, full length isoform A (SALL4, Homo sapiens, UniProt Q9UJQ4, residues 1-1053)
UniProt Q9UJQ4, sequence (whole entry, looked up): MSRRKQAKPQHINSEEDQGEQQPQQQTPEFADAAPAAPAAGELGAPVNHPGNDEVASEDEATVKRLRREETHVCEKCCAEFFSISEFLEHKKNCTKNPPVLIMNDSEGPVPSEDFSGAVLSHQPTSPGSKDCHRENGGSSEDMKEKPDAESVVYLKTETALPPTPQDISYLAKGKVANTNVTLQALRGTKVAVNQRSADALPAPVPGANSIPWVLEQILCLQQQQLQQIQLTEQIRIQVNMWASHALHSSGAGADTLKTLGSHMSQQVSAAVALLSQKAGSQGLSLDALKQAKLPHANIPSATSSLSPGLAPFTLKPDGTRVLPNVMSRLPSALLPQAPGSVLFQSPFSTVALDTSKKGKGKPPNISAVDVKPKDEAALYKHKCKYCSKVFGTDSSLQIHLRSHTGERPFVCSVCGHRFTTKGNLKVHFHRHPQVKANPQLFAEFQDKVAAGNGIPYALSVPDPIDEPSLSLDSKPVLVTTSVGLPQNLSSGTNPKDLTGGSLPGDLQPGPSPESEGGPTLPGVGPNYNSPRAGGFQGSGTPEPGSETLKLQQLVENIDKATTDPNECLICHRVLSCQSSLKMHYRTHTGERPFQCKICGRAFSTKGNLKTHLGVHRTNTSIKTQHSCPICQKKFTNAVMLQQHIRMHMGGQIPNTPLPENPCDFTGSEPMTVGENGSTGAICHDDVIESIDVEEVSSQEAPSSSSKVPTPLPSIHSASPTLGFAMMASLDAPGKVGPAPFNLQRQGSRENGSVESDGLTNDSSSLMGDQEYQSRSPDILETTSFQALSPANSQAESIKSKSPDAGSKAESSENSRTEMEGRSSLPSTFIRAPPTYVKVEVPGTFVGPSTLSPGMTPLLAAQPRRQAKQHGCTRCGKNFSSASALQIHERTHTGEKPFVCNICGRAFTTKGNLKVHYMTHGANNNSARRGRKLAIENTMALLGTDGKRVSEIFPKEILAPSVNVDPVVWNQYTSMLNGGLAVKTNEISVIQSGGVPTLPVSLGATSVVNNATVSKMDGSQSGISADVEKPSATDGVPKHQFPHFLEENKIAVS
Technique: universal PBM
Form: double-stranded DNA, one strand shown
Medium: in vitro
Concentration: 600 nM
Setting: 8-mer, flanks averaged, mean of replicates
Reading: higher = stronger binding
With `CATACGAG` the E-score was 0.00585.
`AACACGGT` gave an E-score of -0.108.
For `GGTCTGAA`, the E-score was -0.0282.
For `CTGAGTAC`, the E-score was -0.157.
`ATTTCACA` gave an E-score of 0.311.
The E-score of `CATGTCAA` is reported as 0.169.
`AATTTAGT` gave an E-score of 0.199.
`AACATCTA` gave an E-score of 0.156.
For `ACACCTCA`, the E-score was -0.0428.

Set 3
Target: Ras GTPase-activating protein-binding protein 1, C-terminal RGG region (G3BP1, Homo sapiens, UniProt Q13283)
UniProt Q13283, sequence (whole entry, looked up): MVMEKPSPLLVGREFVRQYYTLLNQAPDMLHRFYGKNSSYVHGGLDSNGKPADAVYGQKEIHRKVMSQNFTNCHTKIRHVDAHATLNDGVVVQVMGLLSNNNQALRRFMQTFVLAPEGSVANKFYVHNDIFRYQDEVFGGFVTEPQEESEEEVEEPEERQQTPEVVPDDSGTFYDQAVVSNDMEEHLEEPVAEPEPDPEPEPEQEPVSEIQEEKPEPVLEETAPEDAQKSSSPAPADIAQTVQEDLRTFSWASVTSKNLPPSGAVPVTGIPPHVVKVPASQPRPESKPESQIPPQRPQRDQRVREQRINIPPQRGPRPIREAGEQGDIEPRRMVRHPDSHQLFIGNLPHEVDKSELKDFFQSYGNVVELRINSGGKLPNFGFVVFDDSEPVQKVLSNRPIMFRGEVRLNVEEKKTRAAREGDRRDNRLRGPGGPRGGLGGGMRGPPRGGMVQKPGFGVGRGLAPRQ
Technique: RNA Bind-n-Seq
Form: RNA
Medium: in vitro
Concentration: 1 µM
Setting: whole 134-nt RNA, ends assumed
With: 150 mM KCl
Reference: input library
Reading: higher = stronger binding
`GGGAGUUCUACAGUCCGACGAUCAGUCCUGUGCUACACAUCGUAUGUACCGAAUCGGGCCCCGGGCCCCGGGCCCCGGGGAAAGUAUUAUGUUACGCCGUUCGGAUCUGCACUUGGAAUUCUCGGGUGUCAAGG` has a log2 enrichment of -2.45.
For `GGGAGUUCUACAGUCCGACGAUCUUUGUCCCUGCUCAGGAUGAGACUUCUGUGAGCAGCGAGGAUUUUGAUAUGAGCGACUCCACAUGGAUGUCAGCUGACCCGCACCUGGCCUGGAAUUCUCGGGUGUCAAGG`, the log2 enrichment was -0.881.
The log2 enrichment of `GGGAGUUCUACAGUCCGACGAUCAGUCCUGUGCUACACAUCGUAUGUACCGAAUCGGGGUUUUGGGUUUUGGGGUUUUGGGAAAGUAUUAUGUUACGCCGUUCGGAUCUGCACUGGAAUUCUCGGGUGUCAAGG` is reported as 0.335.
With `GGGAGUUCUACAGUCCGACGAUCUCCUCAAGUCCUGUGCUACACAUCGUAUGUACCGAAUCGGUGGAGGUUUGGAAAGUAUUAUGUUACGCCGUUCGGAUCUGCACUUCCAGCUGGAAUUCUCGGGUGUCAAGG` the log2 enrichment was -0.98.
The log2 enrichment of `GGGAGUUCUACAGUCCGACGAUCAGUCCUGUGCUACACAUCGUAUGUACCGAAUCGGCCCCCGGGCCCCCGGGCCCCCGGGAAAGUAUUAUGUUACGCCGUUCGGAUCUGCACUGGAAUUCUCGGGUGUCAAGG` is reported as -2.13.
With `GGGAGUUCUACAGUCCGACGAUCGCAGGAAGUAAAAACAAAUGGAAAUGCUUCGGAUAGUGGCAGGGGUGGGGGUUGCUAAGGAAAGGGUGGGAUGGGAGUGGGUAAAGAGUCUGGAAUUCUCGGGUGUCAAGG` the log2 enrichment was 1.67.

Further values, each from its own experiment
With `PhoQ, residues 284 288 289 292 302 303 SCKMEA` the fold induction was 18 (PhoP, residues 12 14 15 18 19 LHHVQ (Escherichia coli, UniProt P23836); Sort-seq, measured: YFP reporter; E. coli; PhoQ-PhoP variant library, with: 10 µM Mg2+; reference: high Mg2+ state, higher = stronger signaling).
